Results of several laboratories.
Compare with care: the assays were run in different laboratories. Values joined by “and” are separate records of one study, mostly repeats; a detail may differ. ± gives the spread as reported.

Compound | assay | system | setting | how to read | measurement | result
c1ccc(-c2n[nH]cc2-c2ccnc3ccccc23)nc1 | kinase binding, competitor, MIB/MS competition, refers to: IKS1 | Candida albicans cell lysate | 1 µM | baseline: DMSO | log2 fold change | 1.31
CN[C@@H]1COc2c(S(=O)(=O)NC(=O)Nc3c4c(cc5c3CCC5)CCC4)cnn2C1 | refers to: IL-1β | human participants, whole blood ex vivo | 300 mg twice daily, multiple doses, 4 h, added: LPS/ATP | baseline: baseline | inhibition | 99.5%
CC(c1cc2ccccc2s1)N(O)C(N)=O (centres unmarked) |  | human blood | 3 µM, added: A23187 |  | 5-HEPE level | 36 ± 14 pg/mL
Cc1cc(C)c(CNC(=O)c2cc(Cl)c3c(c2C)O[C@@](C)([C@H]2CC[C@H](N(C)C)CC2)O3)c(=O)[nH]1 |  | relapsed/refractory B-NHL patients | dose not given, IWG 2007 criteria |  | best overall response stable disease | 42%
NCC(=O)Nc1cncc(-c2nn3c(=O)cc(N4CCNCC4)nc3s2)c1 | ADP-induced platelet aggregation, light transmission aggregometry | human stable CAD patients on aspirin, platelets ex vivo | 0.04 mg/kg, 90 min post dose, added: 20 µM ADP | baseline: placebo difference | inhibition of platelet aggregation | -3.33%
C[C@@H](O)CCOC(=O)C[C@@H](C)O | refers to: His | human, plasma | 60 min, log2-transformed values |  | metabolite level | 6.3 ± 0.16 µmol/L
COc1ccc2c(c1)CN(Cc1ccc(C(=O)O)cc1)CCS2 |  | exercised mdx mice | 50 mg/kg, 3 weeks |  | forelimb grip strength | 0.166 ± 0.008 kgf
COC[C@@H](c1ccc(C(F)(F)F)cc1)N1CCN(C2(C)CCN(C(=O)c3c(C)ncnc3C)CC2)C[C@@H]1C |  | HIV-1 infected patients, plasma | 15 mg, week 24, with optimized background regimen | baseline: baseline | change in HIV-1 RNA | -1.85 log10 copies/mL
O=C(O)CNC(=O)Cc1ccccc1 |  | ventricular cardiomyocytes, C57BL/6 mouse | dose not given, 0.792 s |  | sarcomere length | 1.7 µm
C[C@H]1C[C@H]2CSC(N)=N[C@@]2(c2nc(NC(=O)c3ccc(OC(F)F)cn3)cs2)CO1 | refers to: total Aβ | healthy adults, plasma | 50 mg once daily, day 7 | baseline: placebo | percent change from baseline | -63%
N#Cc1ccc2c(-c3ccncc3)c(-c3ccc(F)cc3)nn2c1 | kinase binding, competitor, MIB/MS competition, refers to: PKH2 | Candida albicans cell lysate | 10 µM | baseline: DMSO | log2 fold change | 0.122
COc1ccc(F)cc1C(=O)NCc1ccc(-c2nn([C@@H](C)C(F)(F)F)c(N)c2C(N)=O)cc1 |  | CLL/SLL patients | dose not given, therapy, prior, CAR T-cell |  | overall response rate | 90%
COc1ccc(F)cc1C(=O)NCc1ccc(-c2nn([C@@H](C)C(F)(F)F)c(N)c2C(N)=O)cc1 |  | relapsed/refractory CLL patients | dose not given, patients with longitudinal samples |  | best overall response NE | 0%
COc1ccccc1[C@H](Cn1c(=O)n(C(C)(C)C(=O)O)c(=O)c2c(C)c(-c3ncco3)sc21)OC1CCOCC1 | [1-13C]acetate infusion, isotopomer analysis | overweight or obese healthy men, plasma VLDL-TG palmitate | oral, 50 mg single dose, 0 h relative to dose, fasted baseline |  | fractional hepatic DNL | 5.12 % new palmitate
COc1cc([C@H]2OC[C@H]3[C@@H]2CO[C@@H]3c2cc(OC)c(O)c(OC)c2)cc(OC)c1O | Oil Red O | 3T3-L1, mouse | 5 µM, day 8 | baseline: vehicle | lipid accumulation | 98.5 ± 10.3%
C=CC(=O)N1CCC(c2ccc(C(N)=O)c(-c3ccc(Oc4ccccc4)cc3)n2)CC1 | tumour response, Lugano classification | patients with relapsed/refractory MCL | dose not given, investigator assessed, 10.5 months follow-up |  | CR | 28.3%
O=P(O)(O)C(Cl)(Cl)P(=O)(O)O | astrogliosis, immunostaining | Mus musculus, subarachnoid haemorrhage model, hippocampal fissure | dose not given, day 7 | baseline: total area | GFAP-positive area | 7.02%
COc1ncc(-c2nc3c(n2C(C)C)[C@H](c2ccc(Cl)cc2)N(c2cc(Cl)cn(C)c2=O)C3=O)c(OC)n1 | International Working Group criteria | human acute myeloid leukemia patients | oral, 120 mg, response Unknown, high-dose, recommended dose for expansion |  | best overall response | 8.3%
O=C(COc1ccc(Cl)cc1)NC12CC(c3nnc([C@H]4C[C@@H](OC(F)(F)F)C4)o3)(C1)C2 |  | healthy human, PBMC | 200 mg once daily, day 14, 4 h post-dose, median, added: sodium arsenite ex vivo | baseline: baseline | CHAC1 mRNA change | -75.5%
Cc1c(C)n(Cc2cccc(OC(C)(C)C(=O)O)c2)c2ccc(C(=O)N[C@@H](C)c3ccc(C(C)(C)C)cc3)cc12 |  | C57BL/6 mouse, diet-induced obesity, proximal tibia | dose not given |  | bone marrow fat volume | 0.004 ± 0.002 mm3
Cc1cc(C)c(CNC(=O)c2cc(Cl)c3c(c2C)O[C@@](C)([C@H]2CC[C@H](N(C)C)CC2)O3)c(=O)[nH]1 |  | relapsed/refractory NHL patients, PTCL | oral, dose not given |  | best overall response PR | 15.4%
COc1cc(O)c(CC=C(C)C)c(O)c1C(=O)/C=C/c1ccc(O)cc1 | glucose tolerance test | Tac:SW mice (male, conventional, high-fat diet) | in diet, 60 mg/kg per day, 30 min after glucose, after 10 weeks |  | blood glucose | 266 mg/dL

Compound | assay | system | setting | how to read | measurement | result
CC1(C)CCC(c2ccc(Cl)cc2)=C(CN2CCN(c3ccc(C(=O)NS(=O)(=O)c4ccc(N[C@H](CCN5CCOCC5)CSc5ccccc5)c(S(=O)(=O)C(F)(F)F)c4)cc3)CC2)C1 | cell kill | primary neoplastic T lymphocytes, dog 20 | 24 h, multicentric intermediate-large T-cell lymphoma |  | EC50 | 17 nM
CCN1CCN(Cc2ccc(Nc3ncc(F)c(-c4cc(F)c5nc6n(c5c4)[C@H](C)CCC6)n3)nc2)CC1 | RECIST v1.1 | advanced solid tumour patients | dose not given, Phase Ia monotherapy |  | CR | 0%
COc1cc(Nc2ncc3c(n2)-c2ccc(Cl)cc2C(c2c(F)cccc2OC)=NC3)ccc1C(=O)O |  | mice, SK-N-AS neuroblastoma xenograft | 20.8 mg/kg | direction not given | median response score | 0
C=CCn1c(=O)c2cnc(Nc3ccc(N4CCN(C)CC4)cc3)nc2n1-c1ccc2c(n1)[C@@](O)(CC)CC2 |  | SW1573 xenograft, NOD/SCID mice | oral, 80 mg/kg, day 28, once daily intermittent cycles |  | tumour volume difference | 929 ± 35.4 mm3
COc1ncnn2ccc(-c3cnc4nc(C)n(Cc5nnc([C@@H](C)F)o5)c4c3)c12 |  | relapsed or refractory AML, MDS | dose not given, splicing factor mutation-negative |  | best overall response MLFS | 0%
O=C1CCc2ccc(OCCCCN3CCN(c4cccc(Cl)c4Cl)CC3)cc2N1 |  | patients | dose not given, 3 months, CYP2D6 IM and NM |  | discontinuation or switching rate | 22%
Cc1n[nH]c2ccc(-c3cc(OC[C@@H](N)Cc4ccccc4)cnc3-c3ccoc3)cc12 | kinase binding, competitor, MIB/MS competition, refers to: PBS2 | Candida albicans cell lysate | 10 µM | baseline: DMSO | log2 fold change | -0.766
CC(C)[C@H](C(=O)Nc1ccc(C(=O)NO)cc1)c1ccccc1 | volumetric MRI | human, left parieto-occipital meningioma | dose not given, day 1512 | baseline: baseline | tumour volume change | 231%
OC(CCN1CCCCC1)(c1ccccc1)C1CC2C=CC1C2 (centres unmarked) | resting-state EEG | healthy elderly humans | oral, 4 mg, eyes closed, LS mean | baseline: baseline | change in EEG Beta3-power Pz-O2 | 3.5%
CCCCc1nc2c(N)nc3ccccc3c2n1Cc1ccc(CN)cc1 | IFN-γ release, ELISA | PBMC, human | 24 h |  | concentration | ~10 µM
CCOc1c([C@H](C)n2nc(C)c3c(N)ncnc32)cc(Cl)c(F)c1[C@@H]1CNC(=O)C1 | Olink proximity extension, refers to: LAIR-2 | human FL or MZL patients, plasma | dose not given, week 8 day 1, once-daily dosing | baseline: baseline | percent change in level | -46%
N#Cc1ccc2c(c1)[C@H]1CCCN(C(=O)c3ccc4[nH]cnc4c3)[C@H]1C2 | refers to: cortisol | human, Phase II trial | oral, 240 mg once daily, last treatment, HPA axis, mean |  | plasma level | 270 nmol/L
Cn1cc(Nc2nccc(-c3ccc4c(c3)CN(C3COC3)CC[C@H]4NC(=O)c3cn(C(C)(C)C)nn3)n2)cn1 | refers to: PPARα/RXRα Activation | splenic B cells, mouse | in vivo, 30 mg/kg, IgD-activated B cells | baseline: vehicle, positive = activation | pathway activation z-score | 1.41
CN(C)C(=O)Oc1cccc([N+](C)(C)C)c1 | neuromuscular block reversal | rat | dose not given, 12.5 (unit not given), added: cisatracurium | baseline: T1 twitch | train-of-four ratio | 91.1
CCc1c(C)nc(-c2ccc(Cl)s2)nc1Nc1ccc(CC(=O)O)cc1 |  | C57BL/6J mice, high-fat diet | intraperitoneal, 0.3 mg/kg daily, 60% fat diet 12 weeks, dosed last four | baseline: vehicle | fasting blood glucose | decreased
Cc1c(C)c2c(c(C)c1O)CCC(C)(COc1ccc(CC3SC(=O)NC3=O)cc1)O2 (centres unmarked) | deuterium-hydrogen exchange | aqueous phosphate buffer | pH 7.4, 37 °C |  | exchange rate constant | -0.11 h⁻¹
CSCCNc1nc(SCCC(F)(F)F)nc2c1ncn2[C@@H]1O[C@H](COP(=O)(O)OP(=O)(O)C(Cl)(Cl)P(=O)(O)O)[C@@H](O)[C@H]1O | platelet aggregation, light transmission aggregometry | human patients, platelet-rich plasma | dose not given, 1 h, inhibition threshold 90%, added: TRAP 5 µM |  | patients with inhibition above threshold | 0%
N#Cc1ccn2c(-c3ccncc3)c(-c3ccc(F)cc3)nc2c1 | kinase binding, competitor, MIB/MS competition, refers to: KSP1 | Candida albicans cell lysate | 1 µM | baseline: DMSO | log2 fold change | -0.765
NC(=O)c1cnc2[nH]ccc2c1N[C@@H]1[C@@H]2CC3C[C@H]1C[C@@](O)(C3)C2 | flow cytometry, refers to: CD4+ effector memory T cells | Japanese healthy subjects, peripheral blood | oral, 30 mg twice daily, day 7 |  | change from baseline | 0.05%
OC[C@H]1O[C@@H](c2ccc(Cl)c(Cc3ccc(O[C@H]4CCOC4)cc3)c2)[C@H](O)[C@@H](O)[C@@H]1O |  | Japanese type 1 diabetes patients | 2.5 mg, day 28, 672 h | baseline: baseline | diastolic blood pressure change | -0.2 mmHg
CC(C)NCC(O)c1ccc(O)c(O)c1 (centres unmarked) |  | ventricular cardiomyocytes, C57BL/6 mouse | dose not given, 0.072 s |  | sarcomere length | 1.72 µm
C[C@H]1O[C@@H](O[C@H]2CC[C@@]3(C)[C@@H](CC[C@]4(C)[C@@H]3C=C[C@]35OC[C@@]6(CCC(C)(C)C[C@H]63)[C@@H](O)C[C@]54C)[C@]2(C)CO)[C@H](O)[C@@H](O[C@@H]2O[C@H](CO)[C@@H](O)[C@H](O)[C@H]2O)[C@H]1O |  | chronic-plus-binge ethanol mice, liver | oral, 10 mg/kg/day for 7 d, 168 h |  | triglyceride level | 0.138 mmol/g protein and 0.174 mmol/g protein and 0.141 mmol/g protein and 0.134 mmol/g protein and 0.158 mmol/g protein
